Measured values pooled from the literature.
Each numbered part is a random draw from the data of one study; scales do not carry over between parts.

Series 1
Target: Interferon regulatory factor 3, full length, phosphomimetic (IRF3, Homo sapiens, UniProt Q14653, residues 1-427, S386D/S396D/S398D/S402D/T404D/S405D)
Technique: protein-binding microarray
Form: double-stranded DNA, one strand shown
Sample: in vitro
Concentration: 2540 nM top
Notes: 60-bp whole probe
With: salmon DNA 0.4 mg/ml
Baseline: random background probes
Reading: higher = stronger binding
All sequences stand within: GCCTAGCAC … GTCTTGATTCGCTTGACGCTGCTG
Construct (chain): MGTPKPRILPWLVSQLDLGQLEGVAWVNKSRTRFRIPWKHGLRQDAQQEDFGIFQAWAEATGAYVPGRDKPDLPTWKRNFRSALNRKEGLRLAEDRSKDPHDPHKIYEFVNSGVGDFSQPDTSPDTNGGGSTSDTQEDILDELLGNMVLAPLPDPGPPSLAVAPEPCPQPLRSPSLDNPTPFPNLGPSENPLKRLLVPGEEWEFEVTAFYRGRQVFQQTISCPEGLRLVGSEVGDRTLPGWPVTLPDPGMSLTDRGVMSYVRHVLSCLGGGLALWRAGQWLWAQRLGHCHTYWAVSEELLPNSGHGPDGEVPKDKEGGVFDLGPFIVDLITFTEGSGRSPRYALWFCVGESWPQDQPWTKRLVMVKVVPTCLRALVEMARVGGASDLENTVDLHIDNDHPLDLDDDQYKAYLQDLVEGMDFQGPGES
`TAAGGTCTCCTACTGCTTTAGTGCTAG`: “fitted relative affinity” 0.516 z-score.
For `TTAGGACTGGACTTTCGGTTCGTGCTA`, “fitted relative affinity” read 2.27 z-score.
`GACGGTTTCGGTTCCTGGACGTGCTAG`: “fitted relative affinity” 9.1 z-score.
For `GACGATGTCGGGTATCGAGACGTGCTA`, “fitted relative affinity” read -0.245 z-score.
`ATAGATTTCAGTTCCGATTAGTGCTAG`: “fitted relative affinity” 3.74 z-score.
`TTAGATATCGGTACTGGATTAGTGCTA`: “fitted relative affinity” 1.05 z-score.
`GACGGACTCGACACTGGGGACGTGCTA`: “fitted relative affinity” -0.705 z-score.
`GACGGTATCCGGTATCGGGACGTGCTA`: “fitted relative affinity” 2.28 z-score.
`TTAGGACTGCGTTTCGGTTAGTGCTAG` — result for “fitted relative affinity”: 2.76 z-score.

Series 2
Target: Centromere-binding protein 1, full length, His-tagged (CBF1, Saccharomyces cerevisiae, UniProt P17106, residues 1-351)
UniProt P17106, sequence (whole entry, looked up): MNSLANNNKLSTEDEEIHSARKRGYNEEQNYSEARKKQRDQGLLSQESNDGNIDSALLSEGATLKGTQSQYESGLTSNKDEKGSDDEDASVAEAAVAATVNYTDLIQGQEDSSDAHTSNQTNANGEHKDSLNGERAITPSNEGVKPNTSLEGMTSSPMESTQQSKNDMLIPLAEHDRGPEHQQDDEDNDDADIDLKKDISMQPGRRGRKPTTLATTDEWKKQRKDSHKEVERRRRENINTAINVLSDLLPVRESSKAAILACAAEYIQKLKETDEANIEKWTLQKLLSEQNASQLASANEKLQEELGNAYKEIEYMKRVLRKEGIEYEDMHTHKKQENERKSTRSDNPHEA
Technique: competition protein-binding microarray
Form: double-stranded DNA, one strand shown
Sample: in vitro
Concentration: 2 µM
Notes: whole 60-bp probe, lowest competitor level
With: Pho4 competitor, 0.05 µM
Reading: higher = stronger binding
All sequences stand within: … GTCTTGATTCGCTTGACGCTGCTG
`GCCGCCAGGGCCTGGCGCGTGGCCGCCGCTCCTCTT` has a fluorescence intensity of 44.8 a.u.
`CGGGGTTAAGTTTGTAACGTGGGTGGCTTGCAGCAG` has a fluorescence intensity of 74.1 a.u.
With `AAATTACTAAGTTGTGTCGTGGGTGACGCCGTATGA` the fluorescence intensity was 73.8 a.u.
For `ATATGATAAAATATAGATATATACCCTTAGATATCG`, the fluorescence intensity was 102 a.u.
The fluorescence intensity of `GAGTCATAAGCATAACATGTGGTTCCAGAAGCACTT` is reported as 140 a.u.

Series 3
Target: Sal-like protein 4, full length isoform A (SALL4, Homo sapiens, UniProt Q9UJQ4, residues 1-1053)
UniProt Q9UJQ4, sequence (whole entry, looked up): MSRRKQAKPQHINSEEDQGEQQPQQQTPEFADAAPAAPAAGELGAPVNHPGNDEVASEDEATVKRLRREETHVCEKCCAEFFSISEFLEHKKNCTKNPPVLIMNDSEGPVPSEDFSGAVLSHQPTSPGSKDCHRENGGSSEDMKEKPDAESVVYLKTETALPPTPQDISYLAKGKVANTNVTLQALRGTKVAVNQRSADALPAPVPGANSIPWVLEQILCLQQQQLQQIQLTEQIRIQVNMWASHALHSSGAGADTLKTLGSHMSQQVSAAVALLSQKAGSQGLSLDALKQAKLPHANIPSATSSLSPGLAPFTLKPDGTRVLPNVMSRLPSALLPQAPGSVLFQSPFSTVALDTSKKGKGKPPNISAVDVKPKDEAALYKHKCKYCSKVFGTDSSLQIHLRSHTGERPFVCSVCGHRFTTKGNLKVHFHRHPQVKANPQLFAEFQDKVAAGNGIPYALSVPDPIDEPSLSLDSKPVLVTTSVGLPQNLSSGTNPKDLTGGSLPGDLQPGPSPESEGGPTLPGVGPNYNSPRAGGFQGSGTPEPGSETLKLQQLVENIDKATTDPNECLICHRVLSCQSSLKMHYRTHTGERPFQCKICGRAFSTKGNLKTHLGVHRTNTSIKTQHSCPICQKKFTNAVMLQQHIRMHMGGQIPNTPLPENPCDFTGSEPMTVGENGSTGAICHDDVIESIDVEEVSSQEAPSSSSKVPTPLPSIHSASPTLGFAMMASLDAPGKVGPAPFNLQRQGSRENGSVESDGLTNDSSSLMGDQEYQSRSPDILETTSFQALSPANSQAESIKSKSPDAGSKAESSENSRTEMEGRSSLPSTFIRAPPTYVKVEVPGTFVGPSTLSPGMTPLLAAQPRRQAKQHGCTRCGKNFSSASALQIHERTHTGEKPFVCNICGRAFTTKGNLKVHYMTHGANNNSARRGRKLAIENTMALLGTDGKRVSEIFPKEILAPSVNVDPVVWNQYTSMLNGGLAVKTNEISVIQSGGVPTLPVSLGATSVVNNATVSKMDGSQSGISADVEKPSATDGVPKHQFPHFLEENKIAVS
Technique: universal PBM
Form: double-stranded DNA, one strand shown
Sample: in vitro
Concentration: 600 nM
Notes: 8-mer, flanks averaged, mean of replicates
Reading: higher = stronger binding
The E-score of `GCGCTGAA` is reported as -0.309.
With `CAATGGTA` the E-score was 0.183.
For `TGCGTGAA`, the E-score was 0.0529.
`ATGCAATG` gave an E-score of 0.0742.
`ACGTGGTC` gave an E-score of -0.255.
With `GCACTCGC` the E-score was -0.282.
For `CGATACGA`, the E-score was 0.0387.

Other studies, line by line
`PhoQ, residues 284 288 289 292 302 303 TSTLRA` gave a fold induction of 3.54 (PhoP, residues 12 14 15 18 19 LFHKL (Escherichia coli, UniProt P23836); Sort-seq, refers to: YFP reporter; E. coli; PhoQ-PhoP variant library, with: 10 µM Mg2+; baseline: high Mg2+ state, higher = stronger signaling).

A few entries again (series 3):
`ACGTGGTC` gave an E-score of -0.255.
With `GCACTCGC` the E-score was -0.282.
For `CGATACGA`, the E-score was 0.0387.
